# Measured values collected from several papers.
# Observed: enzyme activity
# Action: inhibitor
# CTSL: Procathepsin L (CTSL, Homo sapiens, UniProt P07711)
# Chain of UniProt P07711 (whole entry, looked up): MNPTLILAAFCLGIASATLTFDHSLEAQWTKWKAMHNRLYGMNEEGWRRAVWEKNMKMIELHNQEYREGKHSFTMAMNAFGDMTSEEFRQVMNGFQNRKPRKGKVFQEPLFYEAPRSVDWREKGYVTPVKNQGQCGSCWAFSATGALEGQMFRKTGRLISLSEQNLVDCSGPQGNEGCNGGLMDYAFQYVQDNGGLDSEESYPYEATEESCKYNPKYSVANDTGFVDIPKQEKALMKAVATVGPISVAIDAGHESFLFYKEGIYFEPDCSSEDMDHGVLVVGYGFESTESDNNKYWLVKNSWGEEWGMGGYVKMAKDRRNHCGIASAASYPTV
# GSK3B: Glycogen synthase kinase-3 beta (GSK3B, Homo sapiens, UniProt P49841)
# Chain of UniProt P49841 (whole entry, looked up): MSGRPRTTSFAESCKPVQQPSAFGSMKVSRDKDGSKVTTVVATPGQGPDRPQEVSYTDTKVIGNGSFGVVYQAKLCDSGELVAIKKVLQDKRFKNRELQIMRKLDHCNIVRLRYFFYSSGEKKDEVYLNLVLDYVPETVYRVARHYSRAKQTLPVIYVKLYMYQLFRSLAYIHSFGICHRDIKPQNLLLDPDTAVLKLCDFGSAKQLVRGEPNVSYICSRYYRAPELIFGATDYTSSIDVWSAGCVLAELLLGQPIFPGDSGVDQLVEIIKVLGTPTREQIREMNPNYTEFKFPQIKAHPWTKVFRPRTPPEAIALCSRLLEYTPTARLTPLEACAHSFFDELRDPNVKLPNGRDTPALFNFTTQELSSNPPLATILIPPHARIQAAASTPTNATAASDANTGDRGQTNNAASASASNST
# Chain of UniProt Q00535 (whole entry, looked up): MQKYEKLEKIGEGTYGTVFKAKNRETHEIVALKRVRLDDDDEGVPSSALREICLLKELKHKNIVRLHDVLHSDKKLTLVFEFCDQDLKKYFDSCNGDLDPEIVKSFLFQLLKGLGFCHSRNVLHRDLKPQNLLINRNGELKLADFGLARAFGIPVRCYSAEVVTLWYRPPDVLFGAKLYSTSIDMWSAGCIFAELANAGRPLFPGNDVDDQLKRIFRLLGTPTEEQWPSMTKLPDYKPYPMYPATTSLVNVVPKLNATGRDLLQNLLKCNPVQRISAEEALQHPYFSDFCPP
# Chain of UniProt Q9NYA1 (whole entry, looked up): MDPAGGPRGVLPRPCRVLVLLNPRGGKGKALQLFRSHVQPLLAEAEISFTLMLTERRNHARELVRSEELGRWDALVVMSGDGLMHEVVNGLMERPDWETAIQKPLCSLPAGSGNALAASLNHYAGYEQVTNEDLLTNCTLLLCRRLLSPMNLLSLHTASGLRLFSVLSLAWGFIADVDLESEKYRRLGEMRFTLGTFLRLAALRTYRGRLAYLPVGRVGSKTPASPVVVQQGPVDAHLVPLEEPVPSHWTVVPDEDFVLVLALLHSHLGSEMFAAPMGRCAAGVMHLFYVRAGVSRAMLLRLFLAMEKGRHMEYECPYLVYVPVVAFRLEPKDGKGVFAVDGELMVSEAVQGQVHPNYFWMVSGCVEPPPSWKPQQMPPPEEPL
# Chain of UniProt P05164 (whole entry, looked up): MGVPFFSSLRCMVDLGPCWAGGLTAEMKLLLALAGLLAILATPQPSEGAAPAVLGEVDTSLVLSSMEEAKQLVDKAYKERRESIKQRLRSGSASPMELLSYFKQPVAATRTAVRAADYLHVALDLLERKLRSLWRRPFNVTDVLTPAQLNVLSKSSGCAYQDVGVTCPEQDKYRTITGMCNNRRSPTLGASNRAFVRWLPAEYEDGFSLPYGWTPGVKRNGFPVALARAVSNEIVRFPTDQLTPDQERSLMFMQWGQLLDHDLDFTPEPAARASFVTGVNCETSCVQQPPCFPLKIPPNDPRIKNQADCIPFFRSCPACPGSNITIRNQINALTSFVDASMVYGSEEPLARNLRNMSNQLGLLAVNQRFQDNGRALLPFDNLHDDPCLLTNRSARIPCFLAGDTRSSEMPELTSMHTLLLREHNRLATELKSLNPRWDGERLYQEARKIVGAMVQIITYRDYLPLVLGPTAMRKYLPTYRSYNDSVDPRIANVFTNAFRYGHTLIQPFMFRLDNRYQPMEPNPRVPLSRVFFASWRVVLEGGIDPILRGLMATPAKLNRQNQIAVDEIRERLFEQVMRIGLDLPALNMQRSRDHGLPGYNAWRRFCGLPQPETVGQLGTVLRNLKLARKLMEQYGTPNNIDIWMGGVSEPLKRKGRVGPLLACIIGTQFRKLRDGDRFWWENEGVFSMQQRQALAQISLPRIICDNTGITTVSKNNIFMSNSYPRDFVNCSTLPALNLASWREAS
# Chain of UniProt Q9H4B4 (whole entry, looked up): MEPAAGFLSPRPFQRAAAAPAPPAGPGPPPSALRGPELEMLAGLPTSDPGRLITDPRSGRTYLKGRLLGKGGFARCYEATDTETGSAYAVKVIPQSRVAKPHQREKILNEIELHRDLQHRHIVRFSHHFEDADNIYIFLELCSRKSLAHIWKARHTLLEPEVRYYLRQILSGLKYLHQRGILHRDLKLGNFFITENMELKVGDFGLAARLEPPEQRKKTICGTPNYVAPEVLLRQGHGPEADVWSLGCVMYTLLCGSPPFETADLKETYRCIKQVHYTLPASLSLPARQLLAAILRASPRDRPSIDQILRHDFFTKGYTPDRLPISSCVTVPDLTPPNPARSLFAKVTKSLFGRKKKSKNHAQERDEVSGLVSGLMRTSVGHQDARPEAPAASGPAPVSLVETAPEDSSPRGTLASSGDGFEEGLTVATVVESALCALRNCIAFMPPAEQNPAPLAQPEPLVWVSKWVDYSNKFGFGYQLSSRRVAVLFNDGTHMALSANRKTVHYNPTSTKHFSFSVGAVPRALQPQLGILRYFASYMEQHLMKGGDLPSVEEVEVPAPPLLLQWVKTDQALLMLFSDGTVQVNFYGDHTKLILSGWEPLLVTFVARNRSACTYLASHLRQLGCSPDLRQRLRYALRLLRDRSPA
# Chain of UniProt Q9Y5Y6 (whole entry, looked up): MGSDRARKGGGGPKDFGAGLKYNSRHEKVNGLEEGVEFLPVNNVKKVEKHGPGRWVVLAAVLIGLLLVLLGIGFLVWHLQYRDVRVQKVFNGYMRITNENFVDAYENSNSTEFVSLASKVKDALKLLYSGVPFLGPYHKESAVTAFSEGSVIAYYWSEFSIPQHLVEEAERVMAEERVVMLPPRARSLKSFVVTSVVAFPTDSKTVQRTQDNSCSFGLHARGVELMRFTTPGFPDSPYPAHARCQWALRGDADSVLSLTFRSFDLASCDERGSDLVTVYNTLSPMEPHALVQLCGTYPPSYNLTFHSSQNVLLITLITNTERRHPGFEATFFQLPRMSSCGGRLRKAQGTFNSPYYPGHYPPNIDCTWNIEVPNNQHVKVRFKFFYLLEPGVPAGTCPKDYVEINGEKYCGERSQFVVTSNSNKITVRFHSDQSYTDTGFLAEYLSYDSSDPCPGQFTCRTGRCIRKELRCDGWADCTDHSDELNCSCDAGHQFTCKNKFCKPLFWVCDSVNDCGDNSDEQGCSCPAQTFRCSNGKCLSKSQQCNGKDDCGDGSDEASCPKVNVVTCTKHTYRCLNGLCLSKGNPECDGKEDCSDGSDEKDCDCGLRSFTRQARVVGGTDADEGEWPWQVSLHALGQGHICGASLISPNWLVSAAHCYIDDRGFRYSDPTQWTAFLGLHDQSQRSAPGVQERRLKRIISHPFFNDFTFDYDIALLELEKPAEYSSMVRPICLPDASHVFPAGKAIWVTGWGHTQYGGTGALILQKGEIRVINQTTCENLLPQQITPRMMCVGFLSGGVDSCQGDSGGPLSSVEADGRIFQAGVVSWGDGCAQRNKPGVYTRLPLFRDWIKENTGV
# Chain of UniProt Q8IU80 (whole entry, looked up): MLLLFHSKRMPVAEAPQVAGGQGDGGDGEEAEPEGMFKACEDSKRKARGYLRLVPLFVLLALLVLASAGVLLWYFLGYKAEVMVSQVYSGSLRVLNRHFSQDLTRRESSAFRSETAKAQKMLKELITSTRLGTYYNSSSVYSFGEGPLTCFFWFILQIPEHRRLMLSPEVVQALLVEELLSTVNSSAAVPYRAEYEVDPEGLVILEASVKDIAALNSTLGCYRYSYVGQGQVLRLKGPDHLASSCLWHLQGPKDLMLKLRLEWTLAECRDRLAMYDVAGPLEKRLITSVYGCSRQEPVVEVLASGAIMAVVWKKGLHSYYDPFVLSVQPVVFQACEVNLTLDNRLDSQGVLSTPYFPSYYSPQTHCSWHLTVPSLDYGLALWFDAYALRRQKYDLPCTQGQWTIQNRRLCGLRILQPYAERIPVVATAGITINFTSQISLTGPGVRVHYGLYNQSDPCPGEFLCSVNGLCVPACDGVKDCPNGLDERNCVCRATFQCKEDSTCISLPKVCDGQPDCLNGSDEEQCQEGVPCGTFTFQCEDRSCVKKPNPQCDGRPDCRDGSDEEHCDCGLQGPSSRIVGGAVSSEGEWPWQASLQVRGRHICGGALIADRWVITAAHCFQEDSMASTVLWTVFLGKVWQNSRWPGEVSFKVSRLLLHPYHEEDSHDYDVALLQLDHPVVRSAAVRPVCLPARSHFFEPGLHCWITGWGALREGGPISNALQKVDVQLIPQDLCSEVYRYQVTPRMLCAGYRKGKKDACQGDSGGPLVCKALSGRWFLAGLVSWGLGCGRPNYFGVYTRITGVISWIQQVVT
SMILES,target,assay,conditions,remaining activity
CC[C@H](C)[C@H](NC(=O)[C@H](CCC(N)=O)NC(=O)[C@@H](NC(=O)[C@H](CCSC)NC(=O)[C@H](CCCCN)NC(=O)[C@H](CO)NC(=O)[C@@H](NC(=O)[C@H](CCSC)NC(=O)[C@H](CC(C)C)NC(=O)[C@H](CC(N)=O)NC(=O)[C@@H](NC(=O)[C@@H](NC(=O)[C@H](CO)NC(=O)[C@H](CC(C)C)NC(=O)[C@H](C)NC(=O)[C@H](CCCNC(=N)N)NC(=O)[C@H](CCC(=O)O)NC(=O)[C@H](Cc1ccc(O)cc1)NC(=O)[C@H](Cc1ccccc1)NC(=O)[C@H](C)NC(=O)[C@H](CC(N)=O)NC(=O)[C@@H](N)CCCCN)[C@@H](C)CC)[C@@H](C)CC)[C@@H](C)O)C(C)C)C(=O)N[C@@H](CC(N)=O)C(=O)N[C@H](C(=O)O)C(C)C,"Cyclin-dependent kinase 5, with p25 (CDK5, Homo sapiens, UniProt Q00535)",radiometric,"250 µM, 20 min",27%
CNc1ncc2c(/C=C/C(=O)N3CCC(OC)CC3)nn(Cc3cccc(C(F)(F)F)c3)c2n1,"PLK3 (Homo sapiens, UniProt Q9H4B4)",radiometric,1 µM,104%
Oc1ccc(CC2NCCc3cc(O)c(O)cc32)cc1 (stereo not drawn),CTSL,,100 µM,64.5%
Cc1cc([C@@H](C)Nc2ccccc2C(=O)O)c2nc(N3CCC(F)(F)CC3)c(C#N)c(=O)n2c1,"SPHK1 (Homo sapiens, UniProt Q9NYA1)",ADP detection,10 µM,124%
CC[C@H](C)[C@H](NC(=O)[C@H](CCC(N)=O)NC(=O)[C@H](CC(C)C)NC(=O)[C@H](CCSC)NC(=O)[C@H](CCCCN)NC(=O)[C@H](CO)NC(=O)[C@H](CO)NC(=O)[C@H](CCSC)NC(=O)[C@H](CC(C)C)NC(=O)[C@H](CC(N)=O)NC(=O)[C@@H](NC(=O)[C@@H](NC(=O)[C@H](CO)NC(=O)[C@H](CC(C)C)NC(=O)[C@H](CS)NC(=O)[C@H](CCCNC(=N)N)NC(=O)[C@H](CC(=O)O)NC(=O)[C@H](Cc1c[nH]c2ccccc12)NC(=O)[C@H](Cc1ccccc1)NC(=O)[C@H](C)NC(=O)[C@H](CCC(=O)O)NC(=O)[C@@H](N)CCCCN)C(C)C)[C@@H](C)CC)C(=O)N[C@@H](CC(N)=O)C(=O)N[C@@H](C)C(=O)O,GSK3B,radiometric,"1 µM, 20 min",97%
CC(C)C[C@H](NC(=O)[C@H](Cc1cscn1)NC(=O)CCc1ccccc1)C(=O)N[C@@H](CCCNC(=N)N)C(=O)c1nc2ccccc2s1,"Transmembrane protease serine 6 (Homo sapiens, UniProt Q8IU80)",,0.1 µM,0%
O=C1CC(c2ccccc2)Oc2cc(O)cc(O)c21 (stereo not drawn),CTSL,,100 µM,60.2%
COc1ccc(Cl)cc1-c1cc(=O)[nH]c(=S)n1CC(N)=O,"Myeloperoxidase (MPO, Homo sapiens, UniProt P05164)",,0.156 µM,105%
O=C(CCc1ccc(O)cc1)c1c(O)cc(O)cc1O,CTSL,,100 µM,89.1%
COc1cc(-c2cncc3c2CN(C)Cc2cc(N4CCNCC4)ccc2-3)cc(OC)c1OC,GSK3B,,1 µM,101%
O=C(CCc1ccc(O)cc1)c1c(O)cc(OC2OC(CO)C(O)C(O)C2O)cc1O (stereo not drawn),CTSL,,100 µM,88.2%
N=C(N)NCCC[C@H](NC(=O)[C@H](Cc1ccccc1)NC(=O)[C@H](Cc1cscn1)NC(=O)CCc1ccccc1)C(=O)c1nc2ccccc2s1,"ST14 (Homo sapiens, UniProt Q9Y5Y6)",,0.1 µM,2%

# A few entries again:
SMILES,target,assay,conditions,remaining activity
O=C(CCc1ccc(O)cc1)c1c(O)cc(O)cc1O,CTSL,,100 µM,89.1%
